Values quoted from earlier work, collected from citations in different studies.
Lines come from different studies, so protocols differ. ± marks the error that the study gave.
Sequence of UniProt Q13188 (whole entry, looked up): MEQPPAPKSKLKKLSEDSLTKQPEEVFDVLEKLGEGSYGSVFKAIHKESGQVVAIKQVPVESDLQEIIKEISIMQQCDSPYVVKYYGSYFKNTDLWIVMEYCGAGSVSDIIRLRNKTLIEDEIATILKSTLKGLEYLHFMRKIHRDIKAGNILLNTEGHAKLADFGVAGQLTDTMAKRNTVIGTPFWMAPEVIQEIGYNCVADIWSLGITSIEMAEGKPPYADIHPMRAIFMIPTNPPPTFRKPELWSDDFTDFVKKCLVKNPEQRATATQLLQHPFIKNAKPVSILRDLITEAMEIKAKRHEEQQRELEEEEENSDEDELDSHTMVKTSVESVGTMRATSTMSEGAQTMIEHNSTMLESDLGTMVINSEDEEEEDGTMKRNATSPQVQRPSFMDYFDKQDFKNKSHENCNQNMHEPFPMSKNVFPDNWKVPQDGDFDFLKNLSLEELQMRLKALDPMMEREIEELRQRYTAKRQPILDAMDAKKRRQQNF
Sequence of UniProt P37288 (whole entry, looked up): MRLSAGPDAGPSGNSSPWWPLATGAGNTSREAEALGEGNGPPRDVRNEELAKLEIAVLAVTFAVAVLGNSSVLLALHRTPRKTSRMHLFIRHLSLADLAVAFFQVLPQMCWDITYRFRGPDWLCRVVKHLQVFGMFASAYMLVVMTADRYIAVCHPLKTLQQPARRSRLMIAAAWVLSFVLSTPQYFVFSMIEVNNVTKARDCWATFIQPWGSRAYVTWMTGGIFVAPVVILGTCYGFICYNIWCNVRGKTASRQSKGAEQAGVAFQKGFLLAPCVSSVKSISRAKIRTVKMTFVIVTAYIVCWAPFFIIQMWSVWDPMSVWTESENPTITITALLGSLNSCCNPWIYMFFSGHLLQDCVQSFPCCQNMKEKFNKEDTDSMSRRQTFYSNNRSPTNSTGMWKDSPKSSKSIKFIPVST
Sequence of UniProt P15207 (whole entry, looked up): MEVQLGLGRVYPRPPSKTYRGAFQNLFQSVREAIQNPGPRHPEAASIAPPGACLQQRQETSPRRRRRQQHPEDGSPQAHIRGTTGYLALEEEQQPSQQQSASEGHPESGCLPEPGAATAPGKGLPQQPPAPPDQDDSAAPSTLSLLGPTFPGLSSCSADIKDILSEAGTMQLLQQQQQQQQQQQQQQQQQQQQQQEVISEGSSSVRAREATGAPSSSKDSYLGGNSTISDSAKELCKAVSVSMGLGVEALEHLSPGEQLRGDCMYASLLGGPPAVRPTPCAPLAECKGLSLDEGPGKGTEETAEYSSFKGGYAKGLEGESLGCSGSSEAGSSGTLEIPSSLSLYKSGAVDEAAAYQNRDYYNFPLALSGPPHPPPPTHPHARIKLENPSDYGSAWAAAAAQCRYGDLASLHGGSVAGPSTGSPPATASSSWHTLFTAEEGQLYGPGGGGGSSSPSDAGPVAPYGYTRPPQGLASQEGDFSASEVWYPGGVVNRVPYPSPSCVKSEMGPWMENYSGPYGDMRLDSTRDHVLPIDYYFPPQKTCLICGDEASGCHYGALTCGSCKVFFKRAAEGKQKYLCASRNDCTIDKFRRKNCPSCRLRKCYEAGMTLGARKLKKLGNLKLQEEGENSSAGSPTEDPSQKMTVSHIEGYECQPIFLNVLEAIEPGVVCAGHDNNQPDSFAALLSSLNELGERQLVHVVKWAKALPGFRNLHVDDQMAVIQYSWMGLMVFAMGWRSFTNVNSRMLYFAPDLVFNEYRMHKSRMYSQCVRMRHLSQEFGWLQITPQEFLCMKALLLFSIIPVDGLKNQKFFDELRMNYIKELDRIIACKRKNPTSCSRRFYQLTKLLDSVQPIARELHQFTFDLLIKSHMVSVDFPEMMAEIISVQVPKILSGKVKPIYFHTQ
Sequence of UniProt O60656 (whole entry, looked up): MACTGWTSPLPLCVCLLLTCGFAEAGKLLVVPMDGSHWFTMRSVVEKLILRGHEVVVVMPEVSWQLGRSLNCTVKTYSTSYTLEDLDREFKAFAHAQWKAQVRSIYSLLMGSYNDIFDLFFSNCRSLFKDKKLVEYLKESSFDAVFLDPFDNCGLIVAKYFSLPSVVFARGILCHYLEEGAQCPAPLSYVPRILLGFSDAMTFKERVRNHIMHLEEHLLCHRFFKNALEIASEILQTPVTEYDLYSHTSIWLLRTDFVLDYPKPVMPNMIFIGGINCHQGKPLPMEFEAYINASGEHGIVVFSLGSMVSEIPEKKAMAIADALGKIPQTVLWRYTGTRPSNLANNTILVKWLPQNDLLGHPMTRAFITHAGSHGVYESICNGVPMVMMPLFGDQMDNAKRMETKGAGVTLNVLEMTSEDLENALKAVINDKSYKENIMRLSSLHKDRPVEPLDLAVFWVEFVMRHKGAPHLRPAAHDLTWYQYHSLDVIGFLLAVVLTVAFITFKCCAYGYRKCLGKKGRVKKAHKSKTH
Sequence of UniProt P41738 (whole entry, looked up): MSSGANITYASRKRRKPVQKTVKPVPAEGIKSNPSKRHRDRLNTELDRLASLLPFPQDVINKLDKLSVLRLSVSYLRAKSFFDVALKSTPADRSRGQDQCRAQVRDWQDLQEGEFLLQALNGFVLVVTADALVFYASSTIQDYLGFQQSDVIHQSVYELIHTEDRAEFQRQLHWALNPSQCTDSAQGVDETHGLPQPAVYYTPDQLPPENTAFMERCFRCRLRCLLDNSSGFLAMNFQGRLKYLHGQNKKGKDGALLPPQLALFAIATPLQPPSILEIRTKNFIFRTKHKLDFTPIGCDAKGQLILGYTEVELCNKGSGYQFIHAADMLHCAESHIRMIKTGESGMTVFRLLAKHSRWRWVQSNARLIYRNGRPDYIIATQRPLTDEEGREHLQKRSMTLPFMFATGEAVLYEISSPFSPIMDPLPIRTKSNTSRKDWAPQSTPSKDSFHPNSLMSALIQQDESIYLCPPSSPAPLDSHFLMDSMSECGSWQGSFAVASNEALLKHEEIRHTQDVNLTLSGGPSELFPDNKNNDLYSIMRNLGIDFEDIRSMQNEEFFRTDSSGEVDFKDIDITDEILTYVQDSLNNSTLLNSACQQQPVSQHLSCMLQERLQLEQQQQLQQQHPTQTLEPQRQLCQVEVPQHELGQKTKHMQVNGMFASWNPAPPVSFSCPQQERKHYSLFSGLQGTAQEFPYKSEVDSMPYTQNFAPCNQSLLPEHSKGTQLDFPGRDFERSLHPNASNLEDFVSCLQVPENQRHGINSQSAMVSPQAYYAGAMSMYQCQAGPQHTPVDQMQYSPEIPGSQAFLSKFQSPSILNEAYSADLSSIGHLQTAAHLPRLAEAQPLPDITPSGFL
Sequence of UniProt P11229 (whole entry, looked up): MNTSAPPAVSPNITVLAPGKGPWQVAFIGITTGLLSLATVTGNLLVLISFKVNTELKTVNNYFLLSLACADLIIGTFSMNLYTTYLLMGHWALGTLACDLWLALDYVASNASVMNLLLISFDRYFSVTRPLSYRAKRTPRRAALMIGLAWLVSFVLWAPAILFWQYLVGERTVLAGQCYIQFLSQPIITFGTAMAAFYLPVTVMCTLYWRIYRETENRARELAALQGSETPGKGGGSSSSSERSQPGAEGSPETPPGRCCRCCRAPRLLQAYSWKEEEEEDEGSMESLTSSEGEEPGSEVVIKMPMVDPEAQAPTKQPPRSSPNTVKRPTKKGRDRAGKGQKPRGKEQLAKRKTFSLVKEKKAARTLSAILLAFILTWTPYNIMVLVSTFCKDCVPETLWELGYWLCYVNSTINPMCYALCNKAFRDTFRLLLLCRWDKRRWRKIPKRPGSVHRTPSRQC
Sequence of UniProt P23458 (whole entry, looked up): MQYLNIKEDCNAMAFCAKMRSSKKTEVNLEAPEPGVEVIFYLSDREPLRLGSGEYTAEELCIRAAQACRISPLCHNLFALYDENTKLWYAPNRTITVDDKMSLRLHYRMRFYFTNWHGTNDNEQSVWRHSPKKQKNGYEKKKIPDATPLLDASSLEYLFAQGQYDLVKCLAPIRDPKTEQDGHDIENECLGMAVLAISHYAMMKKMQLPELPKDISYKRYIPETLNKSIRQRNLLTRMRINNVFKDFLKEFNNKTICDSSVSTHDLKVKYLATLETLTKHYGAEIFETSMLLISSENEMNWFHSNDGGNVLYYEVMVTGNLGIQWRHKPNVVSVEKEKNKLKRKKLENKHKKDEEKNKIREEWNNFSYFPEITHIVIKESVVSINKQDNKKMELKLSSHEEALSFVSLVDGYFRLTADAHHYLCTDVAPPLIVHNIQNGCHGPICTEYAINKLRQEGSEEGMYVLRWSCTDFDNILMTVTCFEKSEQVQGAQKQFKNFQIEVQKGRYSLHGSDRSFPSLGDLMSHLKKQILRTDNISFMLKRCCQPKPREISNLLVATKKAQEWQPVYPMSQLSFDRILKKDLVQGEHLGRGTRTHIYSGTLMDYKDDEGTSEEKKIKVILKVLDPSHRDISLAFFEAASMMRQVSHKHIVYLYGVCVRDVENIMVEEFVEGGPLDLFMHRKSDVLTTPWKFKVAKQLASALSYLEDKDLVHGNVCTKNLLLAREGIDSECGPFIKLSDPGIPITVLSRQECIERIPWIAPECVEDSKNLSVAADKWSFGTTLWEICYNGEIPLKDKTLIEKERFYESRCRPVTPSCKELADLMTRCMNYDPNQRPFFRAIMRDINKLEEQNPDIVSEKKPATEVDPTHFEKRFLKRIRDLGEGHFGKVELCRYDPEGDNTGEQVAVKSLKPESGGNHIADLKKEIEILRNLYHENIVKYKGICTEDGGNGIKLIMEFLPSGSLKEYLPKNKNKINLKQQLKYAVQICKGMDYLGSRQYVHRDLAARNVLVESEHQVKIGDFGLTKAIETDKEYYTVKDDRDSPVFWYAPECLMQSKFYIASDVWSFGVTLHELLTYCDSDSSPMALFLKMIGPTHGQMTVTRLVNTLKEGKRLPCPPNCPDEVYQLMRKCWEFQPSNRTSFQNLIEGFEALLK

For `Nc1cc(C(F)(F)F)c(-c2nc(N3CCOCC3)nc(N3CCOCC3)n2)cn1`, the remaining activity was 32% (CLK4 (Homo sapiens, UniProt Q9HAZ1); enzyme activity; 10 µM; baseline: untreated).
`C=CC(=O)N1CCC(C(=O)NCC(=O)N2CCN(c3nc(-c4cnc(N)nc4C(F)F)nc(N4CCOCC4)n3)CC2)CC1` has a remaining activity of 0.6% (PIK3CA (Homo sapiens, UniProt P42336, C420R); kinase activity; 1 µM).
`CC1(C)S[C@@H]2[C@H](NC(=O)[C@H](N)c3ccccc3)C(=O)N2[C@H]1C(=O)O` gave an MIC of greater than 16 µg/mL (Klebsiella oxytoca; clinical isolate RKI-No_609/16).
`O=c1c2ccccc2nc2n1CCc1c-2[nH]c2ccccc12` gave a relative potency of 2 (Ahr (Rattus norvegicus, UniProt P41738); 50% effect level; baseline: benzo[a]pyrene).
`COc1cccc(-c2ccc(NC(=O)C3=C(C(=O)O)CCC3)c(F)c2)c1` has a maximal activation of 620% (Nuclear receptor subfamily 4 group A member 1 (NR4A1, Homo sapiens, UniProt P22736); agonist; baseline: reference modulator).
With `Cc1cc(O)c2c(c1)C(=O)c1cc(O)cc(O)c1C2=O` the inhibition was 69.3 ± 1.34% (AVPR1A (Homo sapiens, UniProt P37288); antagonist; 50 µM).
For `Cc1cc(NC(=O)c2cccc(NC(=O)/C=C/CN(C)C)c2)ccc1Nc1nccc(-c2cccnc2)n1`, the remaining activity was 48% (STK3 (Homo sapiens, UniProt Q13188); enzyme activity, inhibitor; 1 µM; baseline: vehicle).
`C[C@]12CC[C@@H]3c4ccc(O)cc4CC[C@H]3[C@@H]1CCC2=O`: activity class “active” (Androgen receptor (Ar, Rattus norvegicus, UniProt P15207); concentration not given).
`Nc1ncnc2c1ncn2[C@@H]1O[C@H](COP(=O)(O)OP(=O)(O)OP(=O)(O)O)[C@@H](O)[C@H]1O` gave a Km of 2000 µM (AsnA asparagine synthetase (Ligilactobacillus salivarius); substrate).
`Nc1cc(C(F)(F)F)c(-c2nc(N3CCOCC3)nc(N3CCOCC3)n2)cn1` has a remaining binding of 20% (Tyrosine-protein kinase JAK1, JH2 pseudokinase domain (JAK1, Homo sapiens, UniProt P23458); KinomeScan competition binding; 10 µM).
The response of `O=C(Nc1nc2ccccc2[nH]1)c1ccccc1` is reported as 93% (SUMO1/sentrin specific peptidase 7; 5 µM, PubChem AID 434973).
With `C[N+]1(C)CCC(OC(=O)C(c2ccccc2)c2ccccc2)CC1.[I-]` the Hill coefficient was 1 (CHRM1 (Homo sapiens, UniProt P11229); historical reference value).
`CC1=CC(=O)N(c2ccccc2)C1=O` gave a conversion of 98 to 99% (YqjM (Old Yellow Enzyme homolog); ene-reductase biotransformation, substrate).
`CNC(C)C1CCC(N)C(OC2C(N)CC(N)C(OC3OCC(C)(O)C(NC)C3O)C2O)O1` (stereo not shown) has an MIC of greater than 8 µg/mL (Klebsiella oxytoca; clinical isolate RKI-No_609/16).
`CCN(c1cc(-c2ccc(CN3CCOCC3)cc2)cc(C(=O)NCc2c(C)cc(C)[nH]c2=O)c1C)C1CCOCC1` has an inhibition of 6 ± 6% (EHMT1 (Homo sapiens, UniProt Q9H9B1); enzyme activity, inhibitor; 1 µM).
`COc1c(N2C[C@@H]3CCCN[C@@H]3C2)c(F)cc2c(=O)c(C(=O)O)cn(C3CC3)c12` has a Km of 2100 µM (UGT1A9 (Homo sapiens, UniProt O60656); substrate).
